# Assay results from different studies.
# Each numbered part is a random draw from the data of one study; scales do not carry over between parts.
# Sequence of UniProt P23975 (whole entry, looked up): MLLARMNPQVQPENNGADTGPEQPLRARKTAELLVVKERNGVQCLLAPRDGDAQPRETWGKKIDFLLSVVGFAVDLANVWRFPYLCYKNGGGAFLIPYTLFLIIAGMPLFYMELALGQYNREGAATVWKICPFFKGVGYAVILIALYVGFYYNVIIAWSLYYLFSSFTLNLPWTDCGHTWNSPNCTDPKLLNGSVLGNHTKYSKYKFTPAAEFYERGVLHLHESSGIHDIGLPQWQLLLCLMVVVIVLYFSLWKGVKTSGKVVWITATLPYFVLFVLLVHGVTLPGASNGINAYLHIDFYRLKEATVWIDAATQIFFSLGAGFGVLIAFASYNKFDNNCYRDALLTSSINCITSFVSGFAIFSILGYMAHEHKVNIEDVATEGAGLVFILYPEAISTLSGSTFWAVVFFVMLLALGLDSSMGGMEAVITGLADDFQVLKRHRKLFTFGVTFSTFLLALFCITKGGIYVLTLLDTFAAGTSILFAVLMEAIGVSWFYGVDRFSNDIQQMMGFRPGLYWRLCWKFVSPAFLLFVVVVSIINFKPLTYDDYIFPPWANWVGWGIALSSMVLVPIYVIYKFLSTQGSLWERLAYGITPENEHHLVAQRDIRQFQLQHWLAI
# Sequence of UniProt P08588 (whole entry, looked up): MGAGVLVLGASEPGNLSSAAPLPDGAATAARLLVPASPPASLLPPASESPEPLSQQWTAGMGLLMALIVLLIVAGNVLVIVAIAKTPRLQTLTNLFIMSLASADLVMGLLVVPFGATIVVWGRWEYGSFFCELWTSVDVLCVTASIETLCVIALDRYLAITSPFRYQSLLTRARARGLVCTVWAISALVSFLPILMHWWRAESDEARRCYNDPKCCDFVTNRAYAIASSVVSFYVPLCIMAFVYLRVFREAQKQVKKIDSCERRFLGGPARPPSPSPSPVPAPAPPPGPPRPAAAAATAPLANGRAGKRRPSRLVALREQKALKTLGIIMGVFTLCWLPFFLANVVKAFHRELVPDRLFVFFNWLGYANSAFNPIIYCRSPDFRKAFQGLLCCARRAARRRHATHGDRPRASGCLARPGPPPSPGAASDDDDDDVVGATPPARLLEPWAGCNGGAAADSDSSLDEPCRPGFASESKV
# Sequence of UniProt P08908 (whole entry, looked up): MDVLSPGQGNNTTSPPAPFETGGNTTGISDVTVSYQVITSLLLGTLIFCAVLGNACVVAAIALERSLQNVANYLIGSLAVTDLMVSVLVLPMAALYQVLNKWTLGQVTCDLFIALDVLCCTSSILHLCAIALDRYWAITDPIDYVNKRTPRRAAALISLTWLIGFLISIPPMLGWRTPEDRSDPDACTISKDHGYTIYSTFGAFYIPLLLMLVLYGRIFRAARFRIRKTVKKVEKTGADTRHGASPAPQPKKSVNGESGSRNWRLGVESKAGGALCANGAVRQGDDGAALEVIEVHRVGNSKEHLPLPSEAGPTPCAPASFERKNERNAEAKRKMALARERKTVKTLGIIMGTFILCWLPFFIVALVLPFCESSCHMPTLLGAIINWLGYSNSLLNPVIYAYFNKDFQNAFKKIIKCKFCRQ
# Sequence of UniProt P21918 (whole entry, looked up): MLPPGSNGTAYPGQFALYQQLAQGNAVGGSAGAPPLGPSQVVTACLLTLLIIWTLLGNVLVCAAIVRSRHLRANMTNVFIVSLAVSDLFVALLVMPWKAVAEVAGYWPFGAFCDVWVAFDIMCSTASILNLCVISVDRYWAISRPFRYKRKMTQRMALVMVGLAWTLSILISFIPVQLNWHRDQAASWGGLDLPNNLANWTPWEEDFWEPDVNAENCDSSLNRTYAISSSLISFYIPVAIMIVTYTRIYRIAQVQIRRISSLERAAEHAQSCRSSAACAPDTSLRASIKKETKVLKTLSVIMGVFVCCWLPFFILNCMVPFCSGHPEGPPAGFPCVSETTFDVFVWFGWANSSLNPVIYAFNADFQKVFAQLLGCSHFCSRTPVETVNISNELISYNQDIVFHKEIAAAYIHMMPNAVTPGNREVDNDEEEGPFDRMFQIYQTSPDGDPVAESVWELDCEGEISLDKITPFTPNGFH

# Set 1
# Compound: N#CN1CC[C@@H](C(=O)Nc2nc3c(s2)CN(C(=O)CN=[N+]=[N-])CC3)C1
# Concentration: 10 µM
target,assay,inhibition
"Muscarinic acetylcholine receptor M3 (CHRM3, Homo sapiens, UniProt P20309)","binding, radioligand binding",-2.15%
"5-hydroxytryptamine receptor 1A (HTR1A, Homo sapiens, UniProt P08908)",ligand displacement,12.1%
"D(1B) dopamine receptor (DRD5, Homo sapiens, UniProt P21918)","binding, radioligand binding",-19.3%
"Sodium-dependent dopamine transporter (SLC6A3, Homo sapiens, UniProt Q01959)","binding, radioligand binding",83%
"Sodium-dependent noradrenaline transporter (SLC6A2, Homo sapiens, UniProt P23975)","binding, radioligand binding",3.51%
"Kappa-type opioid receptor (OPRK1, Homo sapiens, UniProt P41145)","binding, radioligand binding",13.3%
"Mu-type opioid receptor (OPRM1, Homo sapiens, UniProt P35372)","binding, radioligand binding",18.7%
"Sodium-dependent serotonin transporter (SLC6A4, Homo sapiens, UniProt P31645)","binding, radioligand binding",7.66%

# Set 2
# Target: Calcium/calmodulin-dependent protein kinase type II subunit alpha (CAMK2A, Homo sapiens, UniProt Q9UQM7)
# Sequence of UniProt Q9UQM7 (whole entry, looked up): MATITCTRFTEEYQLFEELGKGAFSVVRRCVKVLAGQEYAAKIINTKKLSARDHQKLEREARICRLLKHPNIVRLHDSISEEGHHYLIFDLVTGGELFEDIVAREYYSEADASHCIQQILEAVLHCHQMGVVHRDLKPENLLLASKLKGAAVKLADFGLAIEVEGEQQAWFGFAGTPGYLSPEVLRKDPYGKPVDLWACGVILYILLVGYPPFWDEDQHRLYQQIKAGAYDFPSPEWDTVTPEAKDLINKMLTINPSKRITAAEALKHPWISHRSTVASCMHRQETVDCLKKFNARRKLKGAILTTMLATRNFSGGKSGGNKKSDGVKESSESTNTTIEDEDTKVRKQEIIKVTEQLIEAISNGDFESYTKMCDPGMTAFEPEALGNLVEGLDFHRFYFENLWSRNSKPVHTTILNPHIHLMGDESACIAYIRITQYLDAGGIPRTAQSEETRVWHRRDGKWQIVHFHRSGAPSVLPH
# Read-out: enzyme activity
# Action: inhibitor
# Concentration: 10 µM
SMILES,inhibition
COC(=O)[C@@]12OC[C@]34[C@H]([C@@H](O)[C@@H]1O)[C@@]1(C)CC(=O)C(O)=C(C)[C@@H]1C[C@H]3OC(=O)[C@H](OC(=O)/C=C(\C)C(C)(C)OC(C)=O)[C@@H]24,-15%
C[C@]1(C(=O)O)CCC[C@]2(C)c3cc(O)ccc3CC[C@@H]12,43%
CCN1C[C@]2(COC)CC[C@H](O)[C@]34C1[C@@](O)([C@@H](OC)[C@H]23)[C@@]1(O)C[C@H](OC)[C@H]2C[C@@H]4[C@@H]1[C@H]2OC,17%

# Set 3
# Target: DNA polymerase theta, helicase domain (POLQ, Homo sapiens, UniProt O75417)
# Sequence of UniProt O75417 (whole entry, looked up): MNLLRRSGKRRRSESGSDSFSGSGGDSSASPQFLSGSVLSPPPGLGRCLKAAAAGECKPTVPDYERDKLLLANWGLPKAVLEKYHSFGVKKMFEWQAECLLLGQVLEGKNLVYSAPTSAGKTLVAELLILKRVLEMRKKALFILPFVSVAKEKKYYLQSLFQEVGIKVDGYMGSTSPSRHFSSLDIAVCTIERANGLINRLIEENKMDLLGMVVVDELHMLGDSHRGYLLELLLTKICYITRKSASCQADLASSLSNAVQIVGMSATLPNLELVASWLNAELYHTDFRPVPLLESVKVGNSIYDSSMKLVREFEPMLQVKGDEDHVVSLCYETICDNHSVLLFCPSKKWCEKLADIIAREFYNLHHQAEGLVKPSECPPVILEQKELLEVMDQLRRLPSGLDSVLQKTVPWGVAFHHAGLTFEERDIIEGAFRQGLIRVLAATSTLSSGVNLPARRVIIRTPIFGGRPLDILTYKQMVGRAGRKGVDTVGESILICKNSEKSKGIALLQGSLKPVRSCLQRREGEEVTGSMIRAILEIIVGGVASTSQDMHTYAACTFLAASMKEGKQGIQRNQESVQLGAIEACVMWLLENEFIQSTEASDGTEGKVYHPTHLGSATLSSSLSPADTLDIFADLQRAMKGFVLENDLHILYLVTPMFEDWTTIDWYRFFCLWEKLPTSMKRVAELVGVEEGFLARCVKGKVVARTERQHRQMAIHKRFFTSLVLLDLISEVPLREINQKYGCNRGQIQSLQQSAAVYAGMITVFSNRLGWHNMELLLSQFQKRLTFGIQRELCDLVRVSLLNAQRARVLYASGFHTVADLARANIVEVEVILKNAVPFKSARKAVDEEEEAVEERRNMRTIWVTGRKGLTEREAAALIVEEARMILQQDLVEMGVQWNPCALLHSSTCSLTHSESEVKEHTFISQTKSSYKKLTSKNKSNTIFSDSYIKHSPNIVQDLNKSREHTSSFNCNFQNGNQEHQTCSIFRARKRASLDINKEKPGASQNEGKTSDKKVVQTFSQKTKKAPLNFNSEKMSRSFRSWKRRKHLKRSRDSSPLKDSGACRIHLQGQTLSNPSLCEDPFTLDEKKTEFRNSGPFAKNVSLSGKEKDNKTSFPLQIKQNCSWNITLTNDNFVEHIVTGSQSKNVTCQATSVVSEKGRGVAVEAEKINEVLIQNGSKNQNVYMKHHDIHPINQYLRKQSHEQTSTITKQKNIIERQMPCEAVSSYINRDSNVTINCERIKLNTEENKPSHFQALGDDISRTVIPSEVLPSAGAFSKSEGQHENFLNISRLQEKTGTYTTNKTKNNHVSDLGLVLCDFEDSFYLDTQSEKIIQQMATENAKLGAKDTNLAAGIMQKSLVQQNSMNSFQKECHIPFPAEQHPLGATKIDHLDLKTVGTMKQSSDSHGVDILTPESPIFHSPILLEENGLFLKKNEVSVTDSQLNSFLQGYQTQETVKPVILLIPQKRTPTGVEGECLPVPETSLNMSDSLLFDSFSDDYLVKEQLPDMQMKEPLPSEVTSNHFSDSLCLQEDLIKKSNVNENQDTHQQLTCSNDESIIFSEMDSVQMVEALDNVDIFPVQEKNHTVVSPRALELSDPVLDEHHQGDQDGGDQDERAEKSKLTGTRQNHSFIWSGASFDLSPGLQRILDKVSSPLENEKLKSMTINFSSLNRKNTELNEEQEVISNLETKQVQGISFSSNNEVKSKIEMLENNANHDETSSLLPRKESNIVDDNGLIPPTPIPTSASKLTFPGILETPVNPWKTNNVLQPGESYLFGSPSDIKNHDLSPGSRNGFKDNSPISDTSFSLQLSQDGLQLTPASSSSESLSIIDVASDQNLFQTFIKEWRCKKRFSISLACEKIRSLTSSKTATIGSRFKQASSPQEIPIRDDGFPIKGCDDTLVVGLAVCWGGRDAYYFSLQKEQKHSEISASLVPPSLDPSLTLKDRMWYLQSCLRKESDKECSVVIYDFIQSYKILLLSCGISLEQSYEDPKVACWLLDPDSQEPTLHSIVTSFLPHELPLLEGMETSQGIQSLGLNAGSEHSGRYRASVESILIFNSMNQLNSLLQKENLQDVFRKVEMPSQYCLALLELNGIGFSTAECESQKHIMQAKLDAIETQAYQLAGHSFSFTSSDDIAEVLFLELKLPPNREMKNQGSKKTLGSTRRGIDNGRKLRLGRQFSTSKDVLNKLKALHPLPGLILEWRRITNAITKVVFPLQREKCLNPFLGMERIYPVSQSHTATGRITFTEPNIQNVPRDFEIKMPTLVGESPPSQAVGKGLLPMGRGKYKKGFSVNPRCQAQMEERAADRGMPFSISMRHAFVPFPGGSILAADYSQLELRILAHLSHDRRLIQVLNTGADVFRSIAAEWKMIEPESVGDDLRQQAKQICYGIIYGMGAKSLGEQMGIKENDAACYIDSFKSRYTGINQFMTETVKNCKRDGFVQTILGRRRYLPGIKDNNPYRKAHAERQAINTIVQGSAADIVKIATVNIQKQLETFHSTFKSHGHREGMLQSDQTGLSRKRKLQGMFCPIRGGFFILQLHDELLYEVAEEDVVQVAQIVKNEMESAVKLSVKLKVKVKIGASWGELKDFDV
# Action: inhibitor
# Concentration: concentration not given
# Notes: absolute value
# Added: with minus without ssDNA
Compound,difference in remaining activity [%]
CSc1ccc(C(c2c(O)c3ccccc3oc2=O)c2c(C)n(C)n(-c3ccccc3)c2=O)cc1 (centres unmarked),35.5
COc1cc(C(c2c(O)c3ccccc3oc2=O)c2c(C)n(C)n(-c3ccccc3)c2=O)ccc1OCC(=O)O (centres unmarked),40.5
CCN(CC)C(=O)c1ccc2c(c1)N(Cc1ccc(C(F)(F)F)cc1)C(=O)c1ccccc1S2,23.1
CN(N=O)c1ccc(O)c(O)c1,56.8

# Mixed results
SMILES,target,assay,test system,setting,endpoint,result
O=C1CCC(N2Cc3c(ccc4c3OCC43CCN(Cc4ccccc4)C3)C2=O)C(=O)N1 (centres unmarked),"CRBN/Zinc finger protein Helios (Homo sapiens, UniProt Q96SW2+Q9UKS7)","degrader, HiBiT",HEK293,0.1694 nM,protein remaining,97.8%
CN1C[C@H](C(=O)N[C@]2(C)O[C@@]3(O)[C@@H]4CCCN4C(=O)[C@H](Cc4ccccc4)N3C2=O)C[C@@H]2c3cccc4[nH]cc(c34)C[C@H]21,"Beta-1 adrenergic receptor (ADRB1, Homo sapiens, UniProt P08588)",agonist,cells,,efficacy,64.8%

# For quick reference, copied from above (set 2):
SMILES,inhibition
COC(=O)[C@@]12OC[C@]34[C@H]([C@@H](O)[C@@H]1O)[C@@]1(C)CC(=O)C(O)=C(C)[C@@H]1C[C@H]3OC(=O)[C@H](OC(=O)/C=C(\C)C(C)(C)OC(C)=O)[C@@H]24,-15%
CCN1C[C@]2(COC)CC[C@H](O)[C@]34C1[C@@](O)([C@@H](OC)[C@H]23)[C@@]1(O)C[C@H](OC)[C@H]2C[C@@H]4[C@@H]1[C@H]2OC,17%
